Measured values collected from several papers.
Protocols differ between the studies behind these lines.

`C[C@H]1CNCCCN1S(=O)(=O)c1cccc2cncc(F)c12`: “adverse drug reactions” 100% (healthy adult men; topical ocular, 1 drop per eye twice daily, 8 days).
`CC#CC(=O)N[C@H]1CCCN(c2c(F)cc(C(N)=O)c3[nH]c(C)c(C)c23)C1` gave an adverse events of 83.3% (healthy volunteers; oral, 10 mg once daily, 14 days, MAD phase I).
For `CCO[C@H]1CCN(Cc2c(OC)cc(C)c3[nH]ccc23)[C@H](c2ccc(C(=O)O)cc2)C1`, “adverse event incidence” read 20% (refers to: abdominal pain; PNH patients with active haemolysis; oral, 100 mg, extension phase).
`CC(=O)N(C)[C@H]1CCN(C(=O)c2cnc3c(c2)C[C@](C)(c2ccc(F)cc2)N3)C1`: “adverse event duration” 4 days (refers to: Sleeplessness; human; oral, 15 mg once daily).
For `C=CC(=O)N1CCC(c2ccc(C(N)=O)c(-c3ccc(Oc4ccccc4)cc3)n2)CC1`, “adverse event rate” read 62.5% (relapsed/refractory mantle cell lymphoma patients; oral, 100 mg twice daily, part, CTCAE v4.03).
For `Cc1cc(C)c(CNC(=O)c2cc(Cl)c3c(c2C)O[C@@](C)([C@H]2CC[C@H](N(C)C)CC2)O3)c(=O)[nH]1`, “adverse event Headache” read 20.8% (relapsed/refractory NHL patients; oral, 200 mg once daily, onset after cycle 1 day 1).
`Cc1cc(Nc2ccc(S(F)(F)(F)(F)F)cc2)n2nc(C(C)(F)F)nc2n1`: “adverse event Chills” 0% (Plasmodium vivax malaria patients; oral, 800 mg).
`CC(C)C[C@H](NC(=O)CNC(=O)c1cc(Cl)ccc1Cl)B(O)O`: “adverse events grade 3” 0% (newly diagnosed multiple myeloma patients; oral, dose not given, Constipation, maintenance).
For `NCCONC(=O)[C@@H]1CC[C@@H]2CN1C(=O)N2OS(=O)(=O)O`, “adverse event incidence” read 0% (refers to: infusion-related reaction; healthy Chinese men; intravenous, 2 g, treatment-related).

A few entries again:
`Cc1cc(Nc2ccc(S(F)(F)(F)(F)F)cc2)n2nc(C(C)(F)F)nc2n1`: “adverse event Chills” 0% (Plasmodium vivax malaria patients; oral, 800 mg).
